Measurements of several laboratories.
Each line is one published result; not all experiments were run side by side. ± marks the error that the study gave. Square brackets hold non-standard residues; d marks the D form. Ends that are not written are not given here. The star is where a group is joined.
GNAI1: GNAI1 (Homo sapiens, UniProt P63096)
Sequence of UniProt P63096 (whole entry, looked up): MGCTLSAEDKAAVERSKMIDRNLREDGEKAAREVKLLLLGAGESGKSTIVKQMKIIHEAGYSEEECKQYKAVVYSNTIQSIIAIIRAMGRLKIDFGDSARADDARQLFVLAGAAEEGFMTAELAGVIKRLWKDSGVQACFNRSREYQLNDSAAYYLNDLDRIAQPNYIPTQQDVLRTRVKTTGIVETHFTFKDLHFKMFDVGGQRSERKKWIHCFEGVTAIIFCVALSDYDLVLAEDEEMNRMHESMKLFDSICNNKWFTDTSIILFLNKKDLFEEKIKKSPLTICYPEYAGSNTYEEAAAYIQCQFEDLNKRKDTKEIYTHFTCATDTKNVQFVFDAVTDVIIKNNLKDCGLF
B1: CIS43 Fab Fab (Homo sapiens); V domains shown; VH QVQLVQSGAEVKKPGASVKVSCKASGYTFTSYAIHWVRQAPGQRLEWMGWIKAGNGNTRYSQKFQDRVTITRDTSTTTAYMELSSLRSEDTAVYYCALLTVLTPDDAFDIWGQGTMVTVSS; VL DIVMTQSPDSLAVSLGERATINCKSSQSVLYSSNNKNYLAWYQQKPGQPPNLLIYWASTRQSGVPDRFSGSGSGTDFTLTISSLQAEDVAVYYCHQYYSSPLTFGGGTKVEIK
B2: LiaR (Enterococcus faecium); chain MIKVLLVDDHEMVRLGVSSYLSIQEDIEVIGEAENGRQGYEKAMALRPDVILMDLVMEEMDGIESTKAILKDWPKAKIIIVTSFIDDEKVYPAIEAGAAGYLLKTSTAHEIADAIRATQRGERVLEPEVTTKMMEKMSRRNDPVLHEELTNRENEILMLISEGKSNQEIADELFITLKTVKTHVSNILAKLEVEDRTQAAIYAFKHGLVK
Sequence of UniProt P00772 (whole entry, looked up): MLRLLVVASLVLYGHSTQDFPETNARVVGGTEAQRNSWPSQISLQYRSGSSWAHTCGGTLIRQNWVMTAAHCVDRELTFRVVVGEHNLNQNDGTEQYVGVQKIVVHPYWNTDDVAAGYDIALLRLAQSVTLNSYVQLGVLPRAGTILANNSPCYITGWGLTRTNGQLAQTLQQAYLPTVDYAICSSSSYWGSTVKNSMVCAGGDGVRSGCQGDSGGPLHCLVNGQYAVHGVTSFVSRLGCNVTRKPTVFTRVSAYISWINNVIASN
Sequence of UniProt O15392 (whole entry, looked up): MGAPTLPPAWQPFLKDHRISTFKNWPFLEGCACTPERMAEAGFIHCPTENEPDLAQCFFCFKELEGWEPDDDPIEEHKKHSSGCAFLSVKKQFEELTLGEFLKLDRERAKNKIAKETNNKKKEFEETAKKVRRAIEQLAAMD
Sequence of UniProt P0A722 (whole entry, looked up): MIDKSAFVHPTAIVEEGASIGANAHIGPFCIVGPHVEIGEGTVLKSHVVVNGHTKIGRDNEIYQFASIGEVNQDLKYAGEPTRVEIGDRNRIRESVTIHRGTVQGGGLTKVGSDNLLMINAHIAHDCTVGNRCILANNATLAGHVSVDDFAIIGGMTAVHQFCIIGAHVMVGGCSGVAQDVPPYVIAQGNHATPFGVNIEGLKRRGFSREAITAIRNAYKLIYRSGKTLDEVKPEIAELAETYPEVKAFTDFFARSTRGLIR
Sequence of UniProt Q6Q546 (whole entry, looked up): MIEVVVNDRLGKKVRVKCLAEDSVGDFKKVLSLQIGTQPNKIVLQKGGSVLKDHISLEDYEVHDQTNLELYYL
Sequence of UniProt P35222 (whole entry, looked up): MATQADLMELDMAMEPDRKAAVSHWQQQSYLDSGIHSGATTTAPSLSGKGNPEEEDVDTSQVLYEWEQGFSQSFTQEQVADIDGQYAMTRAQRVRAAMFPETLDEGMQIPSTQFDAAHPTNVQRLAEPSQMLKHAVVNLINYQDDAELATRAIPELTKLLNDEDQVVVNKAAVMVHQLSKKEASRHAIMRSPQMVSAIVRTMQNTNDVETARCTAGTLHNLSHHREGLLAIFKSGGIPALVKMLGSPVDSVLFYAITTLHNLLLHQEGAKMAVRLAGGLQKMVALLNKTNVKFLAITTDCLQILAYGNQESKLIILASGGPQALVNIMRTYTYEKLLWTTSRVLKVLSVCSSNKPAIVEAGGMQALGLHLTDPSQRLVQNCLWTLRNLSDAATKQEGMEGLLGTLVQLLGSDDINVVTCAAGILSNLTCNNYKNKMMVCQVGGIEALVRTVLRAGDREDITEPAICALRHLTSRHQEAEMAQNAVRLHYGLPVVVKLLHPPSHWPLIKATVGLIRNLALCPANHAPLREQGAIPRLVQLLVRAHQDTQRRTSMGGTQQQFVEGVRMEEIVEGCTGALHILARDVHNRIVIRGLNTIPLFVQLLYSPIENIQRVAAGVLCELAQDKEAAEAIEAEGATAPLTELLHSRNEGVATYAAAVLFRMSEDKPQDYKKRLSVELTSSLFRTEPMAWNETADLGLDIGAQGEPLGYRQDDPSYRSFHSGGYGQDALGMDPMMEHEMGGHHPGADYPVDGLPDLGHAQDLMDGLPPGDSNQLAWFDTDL

Molecule | tested on | assay | test system | setting | scale | endpoint | value
BILF1 K122A (Epstein-Barr virus) | GNAI1 | IP3 accumulation | HEK293 |  | baseline: wild-type BILF1, higher = more signaling | relative Gi signaling | 16%
GVLLKTRHVNILLFMGYST (BRAF 503-521 R506L) | BRAF kinase domain with dimer interface | fluorescence titration | peptide |  |  | Kd | 540 ± 110 nM
B1 (CIS43 Fab Fab) | CSP (Plasmodium falciparum, UniProt Q7K740) | BLI | Fab | 25 °C |  | binding | binds
RmS-3, glycosylated (Rhipicephalus microplus) | chymotrypsin (Bos taurus) | chromogenic substrate hydrolysis, inhibitor |  | 1 µM |  | protease inhibition | 96.9%
GVLRKARHVNILLFMGYST (BRAF residues 503-521 T508A) | BRAF kinase domain with dimer interface | ITC | peptide |  |  | ΔH | -8.32 kcal/mol
AALEAKICHQIEYYFGDF (La peptide 11-28 (UniProt P05455); FITC label; sequence looked up) | SSB Y23Q (Homo sapiens, UniProt P05455) | SEC | peptide | 2 h, pH 7.5, 37 °C, added: FITC-LAP 28 µM |  | binding | binds
LRKTRHVNILLFMG (BRAF 505-518) | BRAF kinase domain with dimer interface | fluorescence titration | peptide |  |  | Kd | 190 ± 130 nM
melittin |  | isothermal titration calorimetry | POPC/POPG LUVs 75:25% | 100 µM, pH 7.0, 60 °C |  | partitioning enthalpy | -22.4 kcal/mol
BILF1 F286A/H288A (Epstein-Barr virus) | GNAI1 | IP3 accumulation | HEK293 |  | baseline: wild-type BILF1, higher = more signaling | relative Gi signaling | 87.1%
GLSQEQLEHRERSLQTLRDIQRMLFP (BCL9 350-375 (Homo sapiens); fluorescent label) | CTNNB1 (Homo sapiens, UniProt P35222) | FP | peptide |  |  | Kd | 270 nM
B2 (LiaR) | liaS 81-355 (Enterococcus faecium, UniProt A0A1B1EYN7) | MST |  | phosphorylated, added: ATP 0.2 mM |  | Kd | 102000 ± 1200 nM
echistatin | ITGAV/ITGB3 whole, on cells (Homo sapiens) | radioligand binding |  |  |  | IC50 | 3.3 nM
{FITC-βAla}-TNLYMLPKWDIP-NH2 (peptide; SMILES CC[C@H](C)[C@H](NC(=O)[C@H](CC(=O)O)NC(=O)[C@H](Cc1c[nH]c2ccccc12)NC(=O)[C@H](CCCCN)NC(=O)[C@@H]1CCCN1C(=O)[C@H](CC(C)C)NC(=O)[C@H](CCSC)NC(=O)[C@H](Cc1ccc(O)cc1)NC(=O)[C@H](CC(C)C)NC(=O)[C@H](CC(N)=O)NC(=O)[C@@H](NC(=O)CCNC(=S)Nc1ccc2c(c1)C(=O)OC21c2ccc(O)cc2Oc2cc(O)ccc21)[C@@H](C)O)C(=O)N1CCC[C@H]1C(N)=O; N-terminal β-Ala-fluorescein; FITC = O=C1OC2(c3ccc(O)cc3Oc3cc(O)ccc32)c2ccc(NC(=S)*)cc21; βAla = NCCC(=O)O) | lpxA (Escherichia coli, UniProt P0A722) | fluorescence polarisation | peptide | pH 8.0, 30 °C, direct binding, Hill fit |  | Kd | 17000 ± 1600 nM
GVLRKTRHVNILLFMGYST (BRAF 503-521) | BRAF kinase domain with dimer interface | fluorescence titration | peptide |  |  | Kd | 3840 ± 320 nM
LSIEETNEIREKLGMKPI (SNU66 HIND-I peptide (Saccharomyces cerevisiae)) | HUB1 1-73 (Saccharomyces cerevisiae, UniProt Q6Q546) | ITC | peptide |  |  | Kd | 1690 ± 270 nM
RmS-17, glycosylated (Rhipicephalus microplus) | CELA1 (Sus scrofa, UniProt P00772) | chromogenic substrate hydrolysis, inhibitor |  | 1 µM |  | protease inhibition | < 20%
AR[pT]KQTARKSTG (H3C1 1-12; pT3; pT = C[C@@H](OP(=O)(O)O)[C@H](N)C(=O)O) | BIRC5 1-142 (Homo sapiens, UniProt O15392) | ITC | peptide | pH 7.6, 25 °C |  | Kd | 6290 ± 310 nM

Excerpt of the above:
Molecule | tested on | assay | test system | setting | scale | endpoint | value
RmS-3, glycosylated (Rhipicephalus microplus) | chymotrypsin (Bos taurus) | chromogenic substrate hydrolysis, inhibitor |  | 1 µM |  | protease inhibition | 96.9%
GVLRKARHVNILLFMGYST (BRAF residues 503-521 T508A) | BRAF kinase domain with dimer interface | ITC | peptide |  |  | ΔH | -8.32 kcal/mol
AALEAKICHQIEYYFGDF (La peptide 11-28 (UniProt P05455); FITC label; sequence looked up) | SSB Y23Q (Homo sapiens, UniProt P05455) | SEC | peptide | 2 h, pH 7.5, 37 °C, added: FITC-LAP 28 µM |  | binding | binds
